# Measurements of several laboratories.
# Each line is one published result; not all experiments were run side by side. Numbers after ± are the reported error.
# Chymotrypsinogen A: Chymotrypsinogen A (Bos taurus, UniProt P00766)
# PPARA ligand-binding domain: Peroxisome proliferator-activated receptor alpha, ligand-binding domain (PPARA, Homo sapiens, UniProt Q07869)
# Sequence of UniProt Q07869 (whole entry, looked up): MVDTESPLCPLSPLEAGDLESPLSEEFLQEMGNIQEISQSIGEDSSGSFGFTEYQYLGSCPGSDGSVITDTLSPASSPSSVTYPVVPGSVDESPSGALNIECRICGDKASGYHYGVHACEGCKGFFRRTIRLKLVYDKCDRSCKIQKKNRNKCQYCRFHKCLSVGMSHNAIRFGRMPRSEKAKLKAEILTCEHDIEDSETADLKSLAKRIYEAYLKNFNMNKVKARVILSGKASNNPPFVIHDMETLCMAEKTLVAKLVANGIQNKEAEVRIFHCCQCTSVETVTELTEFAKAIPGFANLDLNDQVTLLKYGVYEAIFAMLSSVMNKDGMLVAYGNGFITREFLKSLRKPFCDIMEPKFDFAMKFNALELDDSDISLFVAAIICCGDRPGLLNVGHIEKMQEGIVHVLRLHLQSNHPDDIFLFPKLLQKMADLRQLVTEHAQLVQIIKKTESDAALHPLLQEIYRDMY
# GBA2: Beta-glucosidase (GBA2, Homo sapiens, UniProt Q9HCG7)
# Sequence of UniProt Q9HCG7 (whole entry, looked up): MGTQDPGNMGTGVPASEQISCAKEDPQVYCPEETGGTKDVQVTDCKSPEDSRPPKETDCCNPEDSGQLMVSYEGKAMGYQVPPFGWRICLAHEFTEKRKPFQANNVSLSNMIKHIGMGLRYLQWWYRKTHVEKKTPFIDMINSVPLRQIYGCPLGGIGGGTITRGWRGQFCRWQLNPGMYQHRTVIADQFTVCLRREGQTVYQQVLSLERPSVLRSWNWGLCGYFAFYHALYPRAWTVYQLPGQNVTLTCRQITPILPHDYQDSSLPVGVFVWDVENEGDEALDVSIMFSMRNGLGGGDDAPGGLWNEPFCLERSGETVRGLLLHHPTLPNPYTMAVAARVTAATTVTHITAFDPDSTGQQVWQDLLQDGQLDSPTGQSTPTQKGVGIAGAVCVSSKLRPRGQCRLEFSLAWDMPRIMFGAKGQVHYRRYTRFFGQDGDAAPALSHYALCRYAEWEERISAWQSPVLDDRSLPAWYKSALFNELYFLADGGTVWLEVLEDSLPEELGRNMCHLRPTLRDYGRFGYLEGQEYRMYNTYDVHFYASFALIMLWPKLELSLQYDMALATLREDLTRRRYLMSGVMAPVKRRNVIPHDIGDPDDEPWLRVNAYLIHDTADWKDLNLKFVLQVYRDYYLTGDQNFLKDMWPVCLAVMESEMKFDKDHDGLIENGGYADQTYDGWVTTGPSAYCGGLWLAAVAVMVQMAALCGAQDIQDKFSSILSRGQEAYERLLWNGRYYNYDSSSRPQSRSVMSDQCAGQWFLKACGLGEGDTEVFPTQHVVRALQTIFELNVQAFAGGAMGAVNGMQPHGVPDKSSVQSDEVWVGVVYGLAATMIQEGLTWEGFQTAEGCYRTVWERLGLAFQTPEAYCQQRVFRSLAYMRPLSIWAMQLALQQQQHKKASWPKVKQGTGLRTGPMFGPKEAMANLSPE
# Sequence of UniProt P04746 (whole entry, looked up): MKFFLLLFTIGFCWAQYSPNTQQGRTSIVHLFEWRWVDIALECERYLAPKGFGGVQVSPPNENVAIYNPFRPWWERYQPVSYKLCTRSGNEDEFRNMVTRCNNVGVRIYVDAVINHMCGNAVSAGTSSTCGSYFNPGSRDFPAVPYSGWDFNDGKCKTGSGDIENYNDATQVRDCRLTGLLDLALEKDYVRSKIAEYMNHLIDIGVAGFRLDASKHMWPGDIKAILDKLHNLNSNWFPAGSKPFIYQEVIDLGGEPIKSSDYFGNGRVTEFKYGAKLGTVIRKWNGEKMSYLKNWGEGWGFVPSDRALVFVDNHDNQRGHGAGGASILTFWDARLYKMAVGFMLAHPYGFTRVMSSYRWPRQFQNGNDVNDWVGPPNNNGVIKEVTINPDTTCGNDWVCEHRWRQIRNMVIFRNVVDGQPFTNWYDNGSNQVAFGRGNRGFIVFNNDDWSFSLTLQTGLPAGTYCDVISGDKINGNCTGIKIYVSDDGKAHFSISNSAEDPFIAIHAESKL
# Sequence of UniProt Q8NER1 (whole entry, unmodified, looked up): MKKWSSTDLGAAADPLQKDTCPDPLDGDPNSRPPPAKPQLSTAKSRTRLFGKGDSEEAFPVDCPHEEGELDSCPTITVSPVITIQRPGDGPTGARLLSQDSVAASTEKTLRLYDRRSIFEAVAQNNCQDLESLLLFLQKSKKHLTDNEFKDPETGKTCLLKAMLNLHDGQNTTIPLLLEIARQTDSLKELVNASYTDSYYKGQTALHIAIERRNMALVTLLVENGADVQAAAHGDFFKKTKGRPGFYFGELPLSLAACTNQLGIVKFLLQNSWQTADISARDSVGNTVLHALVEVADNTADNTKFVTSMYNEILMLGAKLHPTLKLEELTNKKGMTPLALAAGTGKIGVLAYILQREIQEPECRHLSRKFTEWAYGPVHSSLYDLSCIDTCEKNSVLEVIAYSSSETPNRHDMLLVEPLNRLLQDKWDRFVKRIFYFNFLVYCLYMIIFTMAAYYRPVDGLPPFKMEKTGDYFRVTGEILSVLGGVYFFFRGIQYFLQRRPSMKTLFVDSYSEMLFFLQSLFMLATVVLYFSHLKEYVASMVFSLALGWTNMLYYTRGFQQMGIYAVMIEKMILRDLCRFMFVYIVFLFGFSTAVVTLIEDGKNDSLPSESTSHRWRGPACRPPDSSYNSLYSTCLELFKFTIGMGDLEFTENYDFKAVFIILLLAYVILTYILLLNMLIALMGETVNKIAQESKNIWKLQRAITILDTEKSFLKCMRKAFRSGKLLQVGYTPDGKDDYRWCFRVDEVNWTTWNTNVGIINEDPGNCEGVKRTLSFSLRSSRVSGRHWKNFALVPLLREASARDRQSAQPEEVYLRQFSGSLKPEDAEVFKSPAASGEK
# Sequence of UniProt P10997 (whole entry, looked up): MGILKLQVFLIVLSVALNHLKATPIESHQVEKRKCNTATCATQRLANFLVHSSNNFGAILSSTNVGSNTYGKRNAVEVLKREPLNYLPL
# Sequence of UniProt P15144 (whole entry, looked up): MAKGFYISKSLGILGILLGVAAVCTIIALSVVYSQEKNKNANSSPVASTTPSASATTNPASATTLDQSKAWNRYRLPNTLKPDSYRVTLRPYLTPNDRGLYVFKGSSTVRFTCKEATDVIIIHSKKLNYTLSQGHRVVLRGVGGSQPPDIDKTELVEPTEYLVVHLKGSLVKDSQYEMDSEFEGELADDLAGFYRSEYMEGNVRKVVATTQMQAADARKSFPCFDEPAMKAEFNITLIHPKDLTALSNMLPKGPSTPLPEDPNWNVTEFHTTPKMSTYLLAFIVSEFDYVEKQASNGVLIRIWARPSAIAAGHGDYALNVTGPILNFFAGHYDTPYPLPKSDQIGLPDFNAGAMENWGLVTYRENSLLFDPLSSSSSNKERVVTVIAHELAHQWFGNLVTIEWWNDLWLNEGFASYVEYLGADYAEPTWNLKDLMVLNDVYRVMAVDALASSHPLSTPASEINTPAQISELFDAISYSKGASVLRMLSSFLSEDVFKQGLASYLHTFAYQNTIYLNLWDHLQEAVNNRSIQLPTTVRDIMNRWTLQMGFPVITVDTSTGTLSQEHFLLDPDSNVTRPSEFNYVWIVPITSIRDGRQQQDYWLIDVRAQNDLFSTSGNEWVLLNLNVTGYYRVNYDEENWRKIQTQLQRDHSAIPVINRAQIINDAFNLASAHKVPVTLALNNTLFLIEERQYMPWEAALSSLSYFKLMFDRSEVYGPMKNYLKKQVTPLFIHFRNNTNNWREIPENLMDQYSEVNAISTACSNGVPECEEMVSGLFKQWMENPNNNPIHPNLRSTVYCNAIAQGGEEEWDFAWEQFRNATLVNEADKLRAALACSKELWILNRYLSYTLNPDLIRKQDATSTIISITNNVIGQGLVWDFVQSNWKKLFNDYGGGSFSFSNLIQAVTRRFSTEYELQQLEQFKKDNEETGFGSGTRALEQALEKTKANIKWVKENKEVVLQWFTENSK
# Sequence of UniProt P24280 (whole entry, looked up): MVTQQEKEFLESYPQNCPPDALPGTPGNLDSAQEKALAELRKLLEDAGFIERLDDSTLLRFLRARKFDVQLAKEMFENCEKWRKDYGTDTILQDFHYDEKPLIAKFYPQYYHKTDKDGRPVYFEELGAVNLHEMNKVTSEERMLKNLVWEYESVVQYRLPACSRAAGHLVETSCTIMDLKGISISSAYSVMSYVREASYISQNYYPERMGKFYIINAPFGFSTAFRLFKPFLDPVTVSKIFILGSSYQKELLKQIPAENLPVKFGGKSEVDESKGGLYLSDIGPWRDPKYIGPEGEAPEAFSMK
# Sequence of UniProt P07550 (whole entry, unmodified, looked up): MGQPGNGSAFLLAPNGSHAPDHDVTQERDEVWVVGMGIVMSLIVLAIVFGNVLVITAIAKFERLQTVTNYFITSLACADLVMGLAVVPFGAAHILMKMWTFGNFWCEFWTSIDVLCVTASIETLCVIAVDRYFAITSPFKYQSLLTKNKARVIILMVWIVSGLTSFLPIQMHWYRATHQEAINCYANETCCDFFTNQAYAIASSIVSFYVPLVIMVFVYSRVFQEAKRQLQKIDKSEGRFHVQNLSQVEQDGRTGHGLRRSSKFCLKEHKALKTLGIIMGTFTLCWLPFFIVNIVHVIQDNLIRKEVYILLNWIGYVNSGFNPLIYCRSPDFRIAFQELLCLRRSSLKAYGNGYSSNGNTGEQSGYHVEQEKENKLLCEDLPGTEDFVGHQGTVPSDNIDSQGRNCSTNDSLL
# Sequence of UniProt Q9Y243 (whole entry, looked up): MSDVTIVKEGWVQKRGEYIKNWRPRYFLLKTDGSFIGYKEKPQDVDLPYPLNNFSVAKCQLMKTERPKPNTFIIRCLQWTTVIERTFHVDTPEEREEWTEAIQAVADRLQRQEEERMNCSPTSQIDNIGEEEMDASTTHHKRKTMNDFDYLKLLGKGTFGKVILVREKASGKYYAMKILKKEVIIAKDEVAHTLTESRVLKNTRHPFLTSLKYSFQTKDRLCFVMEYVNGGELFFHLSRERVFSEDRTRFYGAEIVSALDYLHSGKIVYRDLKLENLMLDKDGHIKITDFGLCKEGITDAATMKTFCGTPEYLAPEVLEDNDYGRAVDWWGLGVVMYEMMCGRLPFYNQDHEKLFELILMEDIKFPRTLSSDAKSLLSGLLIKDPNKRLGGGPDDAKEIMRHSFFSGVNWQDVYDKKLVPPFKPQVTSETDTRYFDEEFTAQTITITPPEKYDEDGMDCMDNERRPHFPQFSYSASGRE
Structure (SMILES),target,assay,test system,conditions,IC50 [µM]
COc1ccccc1N1CCN(C(=O)c2ccc(Cl)c([N+](=O)[O-])c2)CC1,"SEC14 (Saccharomyces cerevisiae, UniProt P24280)","enzyme activity, inhibitor, radiometric",,,1.07
Fc1ccc(Nc2nc(NC3CCCCC3)c3ccccc3n2)cc1F,"ADRB2 (Homo sapiens, UniProt P07550, I159A)","β-arrestin2 recruitment, antagonist, BRET",HEK293,"mutant I159A, added: isoprenaline 1 µM",1
CN(C)c1ccc(/N=N/c2ccc(OCCCCCN)cc2)cc1,"IAPP (Homo sapiens, UniProt P10997)","ThT displacement, ThT fluorescence",,"pH 7.4, preformed target-ThT complex, added: 5 µM ThT",0.24
O=C(Nc1ccccc1OC1CCCC1)C(C(F)(F)F)C(F)(F)F,Chymotrypsinogen A,"enzyme activity, inhibitor, fluorescence",,,14
C/C1=C\CC/C(C)=C/CC(C)(C)/C=C/C1,"TRPV1 (Homo sapiens, UniProt Q8NER1, M514Q)","ion current, inhibitor, patch clamp",,,18
O=C1Nc2c(Br)cccc2/C1=C1/Nc2ccccc2C1=NO,"RET (Homo sapiens, UniProt P07949)",,,,> 10
Cc1c(Cc2ccc(Cl)c(O[C@H](C)C(=O)O)c2)c2ccc(C(=O)NCc3ccc(C(C)(C)C)cc3)cc2n1C,PPARA ligand-binding domain,"reporter gene, luciferase reporter","HEK293T, Gal4-PPARα LBD",,3.94
CN(C1=C(c2ccc(F)cc2)C(=O)NC1=O)c1ccccc1,"Sensor histidine kinase AirS (Staphylococcus aureus, UniProt Q2FX96)","autophosphorylation, inhibitor, BODIPY-FL-ATPγS in-gel fluorescence",,lower bound of confidence interval,> 1250
O=C1CC(c2ccc(Br)cc2)N1S(=O)(=O)c1cccc(Cl)c1 (stereo not drawn),Chymotrypsinogen A,"enzyme activity, inhibitor, fluorescence",,,0.22
CCCCCCCOCCCCCN1C[C@H](O)[C@@H](O)[C@H](O)[C@@H]1CO,GBA2,"inhibitor, 4MU-β-D-glucopyranoside",HEK293T homogenates overexpressing GBA2,,0.015
CCc1cccc([C@H](C)NC(=O)c2ccc3c(Cc4cccc(OC(C)(C)C(=O)O)c4)c(C)n(C)c3c2)c1,PPARA ligand-binding domain,"reporter gene, luciferase reporter","HEK293T, Gal4-PPARα LBD",,26.4
COc1ccc(Cl)cc1NC(=O)C(C(F)(F)F)C(F)(F)F,Chymotrypsinogen A,"enzyme activity, inhibitor, fluorescence",,,6.5
OC[C@H]1[C@@H](O)[C@H](O)[C@@H](O)CN1CCCCCOCc1ccc(-c2ccccc2)cc1F,GBA2,"inhibitor, 4MU-β-D-glucopyranoside",HEK293T homogenates overexpressing GBA2,,0.0004
Cc1nn(-c2cccc(N)c2)c(=O)c2cnc(Nc3ccc(N4CCNCC4)cc3)nc12,"AKT3 (Homo sapiens, UniProt Q9Y243)",SelectScreen kinase,,,2.64
CC(C)COCCCCCN1C[C@H](O)[C@@H](O)[C@H](O)[C@H]1CO,GBA2,"inhibitor, 4MU-β-D-glucopyranoside",HEK293T homogenates overexpressing GBA2,,0.0009
Cc1ccc2nc(C)n(/N=C/c3ccc(C(=O)O)cc3)c(=O)c2c1,"Pancreatic alpha-amylase (Homo sapiens, UniProt P04746)","enzyme activity, inhibitor",,,626 ± 17.6
OC[C@H]1[C@@H](O)[C@H](O)[C@@H](O)CN1CCCCCOCC12CC3CC(C1)CC(COCCCCCN1C[C@H](O)[C@@H](O)[C@H](O)[C@@H]1CO)(C3)C2,GBA2,"inhibitor, 4MU-β-D-glucopyranoside",HEK293T homogenates overexpressing GBA2,,0.013
CN(C)c1ncnc2c1ncn2[C@@H]1O[C@H](CCl)[C@@H](NC(=O)[C@H](CSC23CC4CC(CC(C4)C2)C3)NC(=O)OC(C)(C)C)[C@H]1O,"Aminopeptidase N (ANPEP, Homo sapiens, UniProt P15144)","enzyme activity, inhibitor, fluorescence",,,> 100

# For quick reference, copied from above:
Structure (SMILES),target,assay,test system,conditions,IC50 [µM]
C/C1=C\CC/C(C)=C/CC(C)(C)/C=C/C1,"TRPV1 (Homo sapiens, UniProt Q8NER1, M514Q)","ion current, inhibitor, patch clamp",,,18
